# Assay results from different studies.
# ± gives the spread as reported.
# Chain of UniProt P40939 (whole entry, looked up): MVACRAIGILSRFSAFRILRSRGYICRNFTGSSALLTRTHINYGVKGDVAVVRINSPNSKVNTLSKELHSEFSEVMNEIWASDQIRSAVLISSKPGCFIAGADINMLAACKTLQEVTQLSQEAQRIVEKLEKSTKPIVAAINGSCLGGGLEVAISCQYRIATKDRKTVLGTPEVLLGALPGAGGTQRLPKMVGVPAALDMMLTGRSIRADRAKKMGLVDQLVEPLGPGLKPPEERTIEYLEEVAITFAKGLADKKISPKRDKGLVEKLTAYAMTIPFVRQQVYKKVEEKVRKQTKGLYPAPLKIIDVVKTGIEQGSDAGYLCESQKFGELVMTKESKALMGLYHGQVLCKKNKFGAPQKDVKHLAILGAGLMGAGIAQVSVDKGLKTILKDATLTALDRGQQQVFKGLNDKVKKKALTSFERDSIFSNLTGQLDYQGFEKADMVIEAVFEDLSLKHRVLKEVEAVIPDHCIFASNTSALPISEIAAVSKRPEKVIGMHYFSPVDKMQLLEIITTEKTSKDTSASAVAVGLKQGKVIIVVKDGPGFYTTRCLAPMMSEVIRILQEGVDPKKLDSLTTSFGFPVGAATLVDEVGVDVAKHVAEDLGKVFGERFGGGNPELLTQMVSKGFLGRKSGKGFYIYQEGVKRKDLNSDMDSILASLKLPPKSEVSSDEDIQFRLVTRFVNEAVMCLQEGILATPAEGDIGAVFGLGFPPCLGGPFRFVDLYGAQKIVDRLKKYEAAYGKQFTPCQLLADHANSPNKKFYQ
Structure (SMILES),tested on,assay,system,conditions,how to read,measurement,result
Nc1ncnc2c1ncn2[C@@H]1O[C@@H]2COP(=O)(O)O[C@H]3[C@@H](O)[C@H](n4cnc5c(=O)[nH]cnc54)O[C@@H]3COP(=O)(O)O[C@H]2[C@H]1O,HFF-1,"RNA sequencing, refers to: Nicotinate metabolism",,upregulated pathway,relative to: Zika virus alone,pathway fold enrichment,8.88
CN1CCN(C2(CNC3CCN(c4cccc(-c5cc6cc(F)ccc6[nH]5)c4)CC3)CCC2)CC1,OVCAR-5,,,,,GI50,1750 nM
COc1cc(CCC[P+](c2ccccc2)(c2ccccc2)c2ccccc2)c(OC)c2c1OCO2.[I-],COLO 205,SRB,,,,GI50,-6.04 log M
Cc1cc(C(C)(C)c2ccc(O)c(C)c2)ccc1O,HepG2 spheroids,Hoechst flow cytometry,,"0.10 µM, 96 h",,G1 phase cells,65.7 ± 9.95%
COP(=O)(OC)OC=C(Cl)Cl,MDA-MB-231 BAX/BAK siRNA knockdown,"cell viability, CellTiter-Glo",,,direction not given,Z score,1.66
COc1ccc2c(c1)[nH]c1c(C)nccc12,DU-145,"bisulfite pyrosequencing, refers to: RASSF1A promoter CpG site 28",,concentration not given,relative to: vehicle,methylation reduction,0.71%
C/C=C(/C)C(=O)O[C@H]1C(C)=C2[C@H]([C@@H]1OC(=O)CCCCCCC)[C@@](C)(OC(C)=O)C[C@H](OC(=O)CCC)[C@@]1(O)[C@H]2OC(=O)[C@@]1(C)O,HEK293T,"RNA-seq, refers to: HSPH1 mRNA",,"10 µM, 6 h",relative to: vehicle,log2 fold change,-0.38
CC(C)N1CCC(NC2CCN(c3cccc(-c4cc5cc(F)ccc5[nH]4)c3)CC2)CC1,COLO 205,,,,,CC50,7030 nM
COc1c(C)c2c(c(O)c1C/C=C(\C)CCC(=O)O)C(=O)OC2,MHH-ES-1,cell proliferation,bone cancer,,,IC50,145 nM
COc1cc(/C=C/c2ccc(OC)cc2OC)cc(OC)c1,human coronavirus OC43,virus-induced cell killing,MRC-5,screen,,maximum inhibition,26.1%
COc1c(CCC[P+](c2ccccc2)(c2ccccc2)c2ccccc2)cc2c(c1OC)OCO2.[I-],COLO 205,SRB,,,,TGI,-5.24 log M
CNC(=O)c1ccc(N2C(=S)N(c3ccc(C#N)c(C(F)(F)F)c3)C(=O)C2(C)C)cc1F,human coronavirus OC43,virus-induced cell killing,MRC-5,screen,,maximum inhibition,3.49%
C[C@H]1CN(c2n[nH]c3nc(N[C@H]4CC[C@H](NS(=O)(=O)CCC(F)(F)F)CC4)ncc23)CCO1,"Trifunctional enzyme subunit alpha, mitochondrial (HADHA, Homo sapiens, UniProt P40939)","inhibitor, Kinobeads competition profiling",,0.8 µM,relative to: vehicle,relative abundance,1.14

# For quick reference, copied from above:
Structure (SMILES),tested on,assay,system,conditions,how to read,measurement,result
COc1c(CCC[P+](c2ccccc2)(c2ccccc2)c2ccccc2)cc2c(c1OC)OCO2.[I-],COLO 205,SRB,,,,TGI,-5.24 log M
